Assay results from different studies.
Lines come from different studies, so protocols differ. ± gives the spread as reported.
Cell line: SH-SY5Y

For O=C(Nc1ncc(N2CCOCC2)s1)C12CC3CC(CC(C3)C1)C2, the inhibition was 26.1 ± 11.3% (p70S6K phosphorylation, AlphaScreen; 20 µM).
With CC[C@H](C)[C@H]1C(=O)N[C@@H]([C@@H](C)O)C(=O)N[C@@H](C(C)C)C(=O)N[C@@H](CCCCN)C(=O)NCCC[C@H](N)C(=O)N[C@@H](Cc2ccc(O)cc2)C(=O)N[C@@H](CC(C)C)C(=O)N[C@@H](CC(C)C)C(=O)N[C@@H](Cc2ccc(I)cc2)C(=O)N[C@@H](Cc2ccc(O)cc2)C(=O)N[C@@H]([C@@H](C)O)C(=O)N[C@@H](CCC(=O)O)C(=O)NCCC[C@H](N)C(=O)N[C@@H](CCCCN)C(=O)N[C@@H](C(C)C)C(=O)N[C@@H]([C@@H](C)O)C(=O)N1C the LDH release was 20 ± 2% (cytotoxicity; 25 µM).
For Cc1cc(NC(=O)c2cccc(-n3cc(NC(=O)Nc4ccccc4Cl)cn3)c2)ccn1, the EC50 was under 1 µM (c-Jun phosphorylation, inhibitor, in-cell Western; added: 6-OHDA).
For Cc1c(C)c(C)[c-](C)c1C.O=C([N-]c1ccccc1)c1ccccn1.[Cl-].[Ir+3], “viability fold enhancement” read 1.3 fold (SRB; 5 µM, 3 h, added: aldehyde Ia 20 µM, 24 h; baseline: aldehyde Ia alone).
Under VDAC1 oligomerization, O=C(O)CCCOc1ccc(F)cc1-c1cc(-c2ccccc2C(F)(F)F)n(-c2ccccc2)n1 is recorded as “decreased” (0.3 µM, added: rotenone).
The ROS level of CCCCCCCCCC[N]1C(=O)c2cccc[n+]2[Ir]1[Cl].Cc1c(C)c(C)[c-](C)c1C is reported as 6 fold (DCFDA; concentration not given, added: MPP+; baseline: untreated).
With CC(C)C[C@@H]1NC(=O)[C@H](CC(C)C)NC(=O)[C@H](Cc2ccc(O)cc2)NC(=O)[C@@H](N)CCCNC(=O)[C@H](CCCCN)NC(=O)[C@H](C(C)C)NC(=O)[C@H]([C@@H](C)O)NC(=O)[C@H](C(C)C)N(C)C(=O)[C@H]([C@@H](C)O)NC(=O)[C@H](C(C)C)NC(=O)[C@H](CCCCN)NC(=O)[C@@H](N)CCCNC(=O)[C@H](CCC(=O)O)NC(=O)[C@H]([C@@H](C)O)NC(=O)[C@H](Cc2ccc(O)cc2)NC(=O)[C@H](Cc2ccc(I)cc2)NC1=O the LDH release was 14 ± 2% (cytotoxicity; 25 µM).
For COc1c(C)c(OS(=O)(=O)c2ccccc2)c(C)c2c1C(=O)CC(c1ccccc1)O2 (stereo not drawn), the IC50 was 44.7 µM (cell growth or viability, SRB; 72 h).
Cc1ccc(NC(=O)Nc2cnn(-c3cccc(C(=O)Nc4ccnc(C)c4)c3)c2)cc1 gave an IC50 of 3.03 ± 1.08 µM (in-cell Western, item: phospho-c-Jun; pretreatment 1 h, added: 35 µM 6-OHDA).
CC[C@@]1(c2ccccc2)C2=C(CC(C)(C)CC2=O)Nc2n[nH]cc21 has an EC50 of over 20 µM (β-catenin nuclear translocation; 6 h).
With CC(C)C[C@@H]1NC(=O)[C@H](CC(C)C)NC(=O)[C@H](Cc2ccc(O)cc2)NC(=O)[C@@H](N)CCCNC(=O)[C@H](CCCCN)NC(=O)[C@H](C(C)C)NC(=O)[C@H]([C@@H](C)O)NC(=O)[C@H](CC(C)C)N(C)C(=O)[C@H]([C@@H](C)O)NC(=O)[C@H](C(C)C)NC(=O)[C@H](CCCCN)NC(=O)[C@@H](N)CCCNC(=O)[C@H](CCC(=O)O)NC(=O)[C@H]([C@@H](C)O)NC(=O)[C@H](Cc2ccc(O)cc2)NC(=O)[C@H](Cc2ccc(I)cc2)NC1=O the LDH release was 38 ± 5% (cytotoxicity; 25 µM).
With Cc1c(C)c(C)[c-](C)c1C.O=C1c2cccc[n+]2[Ir]([Cl])[N]1CCCCCCCCCC[P+](c1ccccc1)(c1ccccc1)c1ccc2ccc3cccc4ccc1c2c34.[Br-] the cell viability was 1.4 fold (SRB; concentration not given, added: 4-hydroxynonenal 150 µM; baseline: 4-hydroxynonenal alone).
The IC50 of Cc1cc(NC(=O)c2cccc(-n3cc(NC(=O)Nc4ccc(F)cc4)cn3)c2)ccn1 is reported as 0.057 ± 0.048 µM (mitochondrial depolarization; pretreatment 1 h, added: 35 µM 6-OHDA, 4 h).
CC[C@H](C)[C@H]1C(=O)N[C@@H](C)C(=O)N[C@@H](C(C)C)C(=O)N[C@@H](CCCCN)C(=O)NCCC[C@H](N)C(=O)N[C@@H](Cc2ccc(O)cc2)C(=O)N[C@@H](CC(C)C)C(=O)N[C@@H](CC(C)C)C(=O)N[C@@H](Cc2ccc(I)cc2)C(=O)N[C@@H](Cc2ccc(O)cc2)C(=O)N[C@@H]([C@@H](C)O)C(=O)N[C@@H](CCC(=O)O)C(=O)NCCC[C@H](N)C(=O)N[C@@H](CCCCN)C(=O)N[C@@H](C(C)C)C(=O)N[C@@H](C)C(=O)N1C has an LDH release of 18 ± 2% (cytotoxicity; 25 µM).
For Cc1c(C)c(C)[c-](C)c1C.O=C1c2cccc[n+]2[Ir]([Cl])[N]1CCCCCCCCCC[P+](c1ccccc1)(c1ccccc1)c1ccccc1.[Br-], the turnover number was 73 (4-hydroxynonenal reduction, HPLC).
COc1c(C)c(OC(=O)c2ccccc2)c(C)c(OC(=O)c2ccccc2)c1C(=O)/C=C/c1ccccc1 has an IC50 of 25.3 µM (cell growth or viability, SRB; 72 h).
For CC(C)C[C@@H]1NC(=O)[C@H](CC(C)C)NC(=O)[C@H](Cc2ccc(O)cc2)NC(=O)[C@@H](N)CCCNC(=O)[C@H](CCCCN)NC(=O)[C@H](C(C)C)NC(=O)[C@H]([C@@H](C)O)NC(=O)[C@H](C)N(C)C(=O)[C@H]([C@@H](C)O)NC(=O)[C@H](C(C)C)NC(=O)[C@H](CCCCN)NC(=O)[C@@H](N)CCCNC(=O)[C@H](CCC(=O)O)NC(=O)[C@H]([C@@H](C)O)NC(=O)[C@H](Cc2ccc(O)cc2)NC(=O)[C@H](Cc2ccc(I)cc2)NC1=O, the LDH release was 5 ± 1% (cytotoxicity; 25 µM).
COc1ccc(NC(=O)COc2ccc(/C=C/C(C)=N/O)cc2OC)cc1: “TNF-α expressing cells” 15.3% (flow cytometry; 20 µM, added: amyloid beta 10 µM).

For quick reference, copied from above:
For Cc1cc(NC(=O)c2cccc(-n3cc(NC(=O)Nc4ccccc4Cl)cn3)c2)ccn1, the EC50 was under 1 µM (c-Jun phosphorylation, inhibitor, in-cell Western; added: 6-OHDA).
The IC50 of Cc1cc(NC(=O)c2cccc(-n3cc(NC(=O)Nc4ccc(F)cc4)cn3)c2)ccn1 is reported as 0.057 ± 0.048 µM (mitochondrial depolarization; pretreatment 1 h, added: 35 µM 6-OHDA, 4 h).
